Published values collected from several papers.

| Compound | system | setting | endpoint | value |
| --- | --- | --- | --- | --- |
| CCOC(=O)c1nc2cc(Cl)c(Cl)cc2nc1N1CCN(C(=O)Nc2ccc(N3CCNCC3)cc2)CC1 | male mouse, plasma | oral, 10 mg/kg | MRT(0-inf) | 8.1 h |
| C[C@@H](Nc1nc2c(cnn2C(C)(C)C)c(=O)n1Cc1cccc(F)c1)c1ccc(Cl)cc1 | C57BL/6 mouse, plasma | intravenous, 2.5 mg/kg | MRT(0-inf) | 11.3 h |
| O=C(O)c1ccc(/C=C2\SC(=S)N(Cc3cccc(C(F)(F)F)c3)C2=O)cc1 | C57BL/6 mouse, blood | oral, 10 mg/kg | MRT(0-inf) | 2.4 h |
| Cc1cc(NCC(=O)C(C)C)c2nc(N3CCOC[C@H]3C)cc(=O)n2c1 | C57BL/6 mouse, plasma | intraperitoneal, 10 mg/kg, single dose | MRT(0-t) | 0.88 h |
| COc1cc(OCCN2CCOCC2)cnc1-c1nc2cc(OC(F)(F)F)ccc2[nH]1 | mouse, plasma | intraperitoneal, 100 mg/kg | MRT | 1.51 h |
| Cc1ncsc1-c1ccc(CNC(=O)[C@@H]2C[C@@H](O)CN2C(=O)[C@@H](NC(=O)COCC(C)(COCCOCCOCCNC(=O)C[C@@H]2N=C(c3ccc(Cl)cc3)c3c(sc(C)c3C)-n3c(C)nnc32)COCCOCCOCCNC(=O)C[C@@H]2N=C(c3ccc(Cl)cc3)c3c(sc(C)c3C)-n3c(C)nnc32)C(C)(C)C)cc1 | male C57BL/6 mouse, plasma | intravenous, 5 mg/kg, single dose | MRT(0-inf) | 1.92 h |
| COc1ccccc1/C=C/CNCC(O)COc1ccc(Nc2ccccc2)cc1 (racemic) | mouse, plasma | oral, 10 mg/kg | MRT(0-inf) | 0.94 h |
| CCn1cc(-c2cc(Cn3ccnc3)cc3c2CCN([C@H](c2cc(OC)ccn2)C2CC2)C3=O)c(C(F)(F)F)n1 | male CD-1 mouse, plasma | intravenous, 3 mg/kg | MRT(0-inf) | 0.6 h |
| O=C1CCC(N2C(=O)c3ccc(N4CCC(C(=O)N5CCC(CCN6CCC(CNC(=O)c7cccc(-c8noc(C(F)(F)F)n8)c7)(c7nc(-c8ccccc8)cs7)CC6)CC5)CC4)cc3C2=O)C(=O)N1 (centres unmarked) | CD-1 mouse, plasma | oral, 30 mg/kg | MRT | 2.28 h |
| COc1cnc2cccc(N3CCc4c(cc(Cn5ccnc5)cc4-c4cn(C)nc4C(F)(F)F)C3=O)c2c1 | male CD-1 mouse, plasma | intraperitoneal, 100 mg/kg | MRT(0-inf) | 4.3 h |
| Cc1cc(NCC(=O)C(C)(C)C)c2nc(N3CCOC[C@H]3C)cc(=O)n2c1 | C57BL/6 mouse, plasma | intraperitoneal, 10 mg/kg, single dose | MRT(0-t) | 0.97 h |

For quick reference, copied from above:
| Compound | system | setting | endpoint | value |
| --- | --- | --- | --- | --- |
| COc1ccccc1/C=C/CNCC(O)COc1ccc(Nc2ccccc2)cc1 (racemic) | mouse, plasma | oral, 10 mg/kg | MRT(0-inf) | 0.94 h |
| CCn1cc(-c2cc(Cn3ccnc3)cc3c2CCN([C@H](c2cc(OC)ccn2)C2CC2)C3=O)c(C(F)(F)F)n1 | male CD-1 mouse, plasma | intravenous, 3 mg/kg | MRT(0-inf) | 0.6 h |
